Experimental data gathered from unrelated publications.
Parts stem from different laboratories: compare values within a part only. Substitutions count along the parent as printed.
Chain of UniProt O14965 (whole entry, looked up): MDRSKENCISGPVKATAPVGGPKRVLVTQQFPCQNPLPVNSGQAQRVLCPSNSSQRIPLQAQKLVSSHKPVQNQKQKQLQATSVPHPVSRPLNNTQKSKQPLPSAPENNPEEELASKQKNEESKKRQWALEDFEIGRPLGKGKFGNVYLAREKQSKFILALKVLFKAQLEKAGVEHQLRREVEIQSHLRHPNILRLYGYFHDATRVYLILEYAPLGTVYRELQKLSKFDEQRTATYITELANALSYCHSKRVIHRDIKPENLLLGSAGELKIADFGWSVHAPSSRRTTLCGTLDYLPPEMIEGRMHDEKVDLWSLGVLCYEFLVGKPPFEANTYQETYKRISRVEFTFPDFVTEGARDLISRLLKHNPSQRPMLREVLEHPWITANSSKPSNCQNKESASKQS

Block 1
Target: Myc proto-oncogene protein, bHLH-zipper, MAX partner unstated (MYC, Homo sapiens, UniProt P01106, residues 368-449)
Chain of UniProt P01106 (368-449, looked up): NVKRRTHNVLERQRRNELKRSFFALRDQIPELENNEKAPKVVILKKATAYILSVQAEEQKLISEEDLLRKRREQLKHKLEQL
Technique: protein-binding microarray
Form: double-stranded DNA, one strand shown
Medium: in vitro
Tested at: not given
Notes: k-mer, scored over probes, only values ≥0.25
Direction: higher = stronger binding
Sequence | E-score
ACGCGACT | 0.344
AACACGTG | 0.496
CGTGTATA | 0.26
GGGTGGAC | 0.319
ACCCATGC | 0.396
ATGCTGCC | 0.256
CACGTTTA | 0.326
CACGCGTA | 0.43

Block 2
Target: CCNF, cyclin fold, Cln2 fusion (human)
Technique: yeast growth competition, sequencing
Medium: yeast
Notes: strong parent motif
Reference: not given
Direction: higher = stronger binding
Starting sequence: GMNC docking peptide (human); KNAKRNLSSEFAN; partner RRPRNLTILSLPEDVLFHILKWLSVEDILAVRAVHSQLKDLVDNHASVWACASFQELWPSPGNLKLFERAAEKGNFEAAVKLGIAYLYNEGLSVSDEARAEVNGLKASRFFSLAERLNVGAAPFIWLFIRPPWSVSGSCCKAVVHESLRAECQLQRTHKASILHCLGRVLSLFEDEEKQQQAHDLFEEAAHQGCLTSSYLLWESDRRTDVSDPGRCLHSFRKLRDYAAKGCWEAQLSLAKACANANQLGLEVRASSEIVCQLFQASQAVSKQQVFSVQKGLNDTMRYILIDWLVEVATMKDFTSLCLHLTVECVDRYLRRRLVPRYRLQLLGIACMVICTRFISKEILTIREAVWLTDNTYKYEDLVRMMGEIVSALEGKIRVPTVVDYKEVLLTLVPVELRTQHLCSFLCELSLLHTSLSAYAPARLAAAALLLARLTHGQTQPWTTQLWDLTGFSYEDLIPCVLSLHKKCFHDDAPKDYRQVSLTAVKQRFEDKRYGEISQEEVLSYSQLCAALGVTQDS
Substitution | normalised enrichment score
KNAKDNLSSEFAN [R5D] | -0.14
KSAKRNLSSEFAN [N2S] | 0.921
KNAKRNLSSFFAN [E10F] | 0.844
KNAKRNLSSETAN [F11T] | 0.184
KNAKRNLSWEFAN [S9W] | 1.36
KNADRNLSSEFAN [K4D] | -0.0317
KNAKRNLVSEFAN [S8V] | 0.784
KNAKRNLSSEFKN [A12K] | 0.567

Block 3
Target: Interferon regulatory factor 1, DNA-binding domain (IRF1, Homo sapiens, UniProt P10914, residues 1-114)
Technique: protein-binding microarray
Form: hairpin DNA
Medium: in vitro
Tested at: not given
Notes: whole hairpin DNA, median over replicate spots
Reference: not given
Direction: higher = stronger binding
Target sequence (chain): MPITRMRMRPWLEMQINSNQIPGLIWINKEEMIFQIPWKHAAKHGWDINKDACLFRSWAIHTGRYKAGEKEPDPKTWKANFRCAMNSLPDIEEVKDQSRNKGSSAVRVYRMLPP
Sequence | median fluorescence [a.u.]
GAGGCCCGACAGTGAAACGCCTCCTGGCGTTTCACTGTCGGGCCTCACAC (5mC at 10) | 494
GAGGCCCGCGAGCGAAACGCCTCCTGGCGTTTCGCTCGCGGGCCTCACAC (5mC at 9 37) | 532
GAGGCCCGAAGGTGAAACGCCTCCTGGCGTTTCACCTTCGGGCCTCACAC (5mC at 36) | 526
GAGGCCCGAAAGCGAAACGCCTCCTGGCGTTTCGCTTTCGGGCCTCACAC | 1910
GAGGCCCGAAACGGAAACGCCTCCTGGCGTTTCCGTTTCGGGCCTCACAC | 562
GAGGCCCGAAAGCGAAACGCCTCCTGGCGTTTCGCTTTCCGGCCTCACAC (5mC at 13 33 40) | 693
GAGGCCCGAAAGTGACGCGCCTCCTGGCGCGTCACTTTCGGGCCTCACAC (5mC at 30) | 542
GAGGCCCGAAAGCGAAATGCCTCCTGGCATTTCGCTTTCGGGCCTCACAC | 794

Other studies, line by line
SMILES | target | observed | action | tested at | reference | quantity | result
COc1cc2c(cc1OC)-c1[nH]nc(Nc3cccc(F)c3)c1C2 | Aurora kinase A (AURKA, Homo sapiens, UniProt O14965) | enzyme activity | inhibitor | 0.5 µM | control | remaining activity | 94.6%

Repeated from above (block 1):
Sequence | E-score
GGGTGGAC | 0.319
ACCCATGC | 0.396
